Results collected from several papers.
Compare with care: the assays were run in different laboratories. Several values in a cell are separate wells, animals, samples, runs or records. Numbers after ± are the reported error.
TEM-1 β-lactamase: TEM-1 β-lactamase (UniProt P62593)
PPIA: PPIA (Homo sapiens, UniProt P62937)
HCRTR2 del254-292/I293E/K294R/L160H/M161K/Q254E: Orexin receptor type 2 (HCRTR2, Homo sapiens, UniProt O43614, del254-292/I293E/K294R/L160H/M161K/Q254E)
MAD2L2 R124A: MAD2L2 R124A (Homo sapiens, UniProt Q9UI95)
IFT81: IFT81 (Chlamydomonas reinhardtii, UniProt Q68RJ5)
KPC-2: KPC-2 (Klebsiella pneumoniae, UniProt Q9F663)
B1: enzyme (Enterococcus faecalis, UniProt Q836M4); chain MEIHFEKVTSDNRKAVENLQVFAEQQAFIESMAENLKESDQFPEWESAGIYDGNQLIGYAMYGRWQDGRVWLDRFLIDQRFQGQGYGKAACRLLMLKLIEKYQTNKLYLSVYDTNSSAIRLYQQLGFVFNGELDTNGERVMEWTHQNK
B2: FAM222A 151-300 (Homo sapiens, UniProt Q5U5X8); sequence looked up; chain PSTLGPLAYPKPPEAPAPPPGLPAAATAASVIPLPGRGLPLPPSNLPSIHSLLYQLNQQCQAPGAAPPACQGMAIPHPSPAKHGPVPSFPSMAYSAAAGLPDCRKGTELGQGATQALTLAGAAKPAGYADSGLDYLLWPQKPPPPPPQPL
B3: FBPA (Plasmodium falciparum, UniProt Q7KQL9); chain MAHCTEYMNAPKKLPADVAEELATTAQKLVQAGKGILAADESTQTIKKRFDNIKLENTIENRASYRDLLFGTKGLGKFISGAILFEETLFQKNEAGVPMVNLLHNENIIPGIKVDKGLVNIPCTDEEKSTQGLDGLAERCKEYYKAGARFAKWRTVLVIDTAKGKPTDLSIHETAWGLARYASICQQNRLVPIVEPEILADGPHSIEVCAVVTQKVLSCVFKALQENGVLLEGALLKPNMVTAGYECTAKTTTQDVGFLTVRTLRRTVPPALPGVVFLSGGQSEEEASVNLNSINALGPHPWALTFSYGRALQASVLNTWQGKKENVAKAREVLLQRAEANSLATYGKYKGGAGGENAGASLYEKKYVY

Molecule | tested on | test | test system | conditions | scale | endpoint | result
B1 (enzyme) | CC(=O)SCCNC(=O)CCNC(=O)[C@H](O)C(C)(C)COP(=O)(O)OP(=O)(O)OC[C@H]1O[C@@H](n2cnc3c(N)ncnc32)[C@H](O)[C@@H]1OP(=O)(O)O | steady-state kinetics |  | pH 8, 37 °C, Hill n 1.36, with: spermine 1 mM |  | kcat | 26.7 ± 0.7 s⁻¹
B2 (FAM222A 151-300) | MAVS 1-513 (Homo sapiens, UniProt Q7Z434) | pull-down |  |  |  | binding | binds
CDGYSSTGFYRGSAHLWFC (MBP/BLIP cyclic peptide (Streptomyces clavuligerus); cyclic) | TEM-1 β-lactamase | SPR | peptide |  |  | koff | 0.00072 s⁻¹
NS5B mature (hepatitis C virus) | PPIA | luciferase, two-hybrid | CHO |  | relative to: VP16 alone, higher = stronger interaction | specific window | 2.6 fold
melanin-concentrating hormone | HCRTR2 del254-292/I293E/K294R/L160H/M161K/Q254E | sensor fluorescence, fluorescence imaging | HEK293T | concentration not given, unit not given | relative to: baseline | ΔF/F0 | 3.33 and -1.69 and 3.17 and 1.65 and 0.311 and 0.335 and 4.18 and 2.44
CWSEYYPAYC (BLIP cyclic peptide (Streptomyces clavuligerus); C-terminal amide, cyclic, disulfide) | TEM-1 β-lactamase | BLI | peptide |  |  | koff | 0.00034 s⁻¹
B3 (FBPA) | TRAP C-terminal cytoplasmic tail (Plasmodium vivax) | SPR |  |  |  | Kd | 140 nM
PRTANILKPLMSPPSR (REV3L RBM1, 1872-1887 (Homo sapiens)) | MAD2L2 R124A | competition with FAM-REV3 peptide, competitor, fluorescence polarisation | peptide |  |  | IC50 | 18000 ± 2000 nM
RNA 1 AACAAAACAAAAUAGCACCGUAAAGC / RNA 2 GCUUUACGGUGCUA (dsRNA; 14 bp duplex, 5' 12 nt overhang) | DEAD-box ATP-dependent RNA helicase RhpA (Pseudomonas aeruginosa, UniProt Q9HX66) | fluorescence polarization | double-stranded RNA | with: AMP-PNP 1 mM |  | Kd | 2.2 nM
FAP9 (Chlamydomonas reinhardtii, UniProt A8HME3) | IFT81 | cross-linking MS |  | hits only |  | interaction screen | cross-linked
E2F1 fragment V88E | CCNF/SKP1 1-546 (Homo sapiens) | fluorescence polarisation |  |  | relative to: wild-type peptide, higher = weaker binding | affinity decrease | 30 fold
Neurotensin | HCRTR2 del254-292/I293E/K294R/L160H/M161K/Q254E | sensor fluorescence, fluorescence imaging | HEK293T | concentration not given, unit not given | relative to: baseline | ΔF/F0 | -0.41 and -0.331 and 2.23 and 0.362 and 1.81 and 0.789 and 3.73 and -2.32
tetrahydrofolate | SHMT2 (Homo sapiens, UniProt P34897) | substrate, MTHFD2-coupled NADH fluorescence |  | with: serine 200 mM |  | Km | 108 µM
IFT81 (Chlamydomonas reinhardtii, UniProt Q68RJ5) | IFT74 (Chlamydomonas reinhardtii, UniProt Q6RCE1) | cross-linking MS |  | hits only |  | interaction screen | cross-linked
rpoN (Escherichia coli, UniProt P24255) | rpoC (Escherichia coli, UniProt P0A8T7) | cryo-EM |  |  |  | binding | binds
CDYYAYATFGFTSAAADAKVC (BLIP cyclic peptide (Streptomyces clavuligerus); C-terminal amide, cyclic, disulfide) | TEM-1 β-lactamase | BLI | peptide |  |  | koff | 0.001 s⁻¹
Ac-LRKLRKRLLRDWLKAFYDKVAEKLKEAF-NH2 (N-acetyl, C-amide) | THP-1 derived macrophages |  | peptide | 2 h pulse, 24 h chase, heparin wash |  | cell-associated peptide | 30 ± 1.1%
GRGRGRGRGRGRGRGRGRGRGRGRGRGRGRGRGRGRGRGRGRGRGRGRGRGRGRGRGRGR (poly-GR 30 repeats) | NPM1 (Homo sapiens, UniProt P06748) | BLI | peptide |  |  | Kd | 35.2 nM
neuropeptide FF | HCRTR2 del254-292/I293E/K294R/L160H/M161K/Q254E | sensor fluorescence, fluorescence imaging | HEK293T | concentration not given, unit not given | relative to: baseline | ΔF/F0 | 0.585 and -0.179 and -1.84 and -5.47 and 0.127 and -0.72 and -2.21 and -2.64
pertussis toxin | GPR37 (Homo sapiens, UniProt O15354) | osteocalcin-induced calcium increase, inhibitor | HEK293-GCaMP6s cells transfected with GPR37 | concentration not given, with: osteocalcin after pretreatment |  | calcium increase | inhibited
DLDSDDEY (TELO2 488-494 (Homo sapiens); pS491) | PIH1D1 51-180 R163A (Homo sapiens, UniProt Q9NWS0) | ITC | peptide |  |  | Kd | 112000 nM
IFT25 (Chlamydomonas reinhardtii, UniProt B8LIX8) | IFT81 | cross-linking MS |  | hits only |  | interaction screen | cross-linked

Molecule | tested on | test | test system | conditions | scale | endpoint | result
CAGGIFHSLALKC (BLIP-II cyclic peptide (Streptomyces); C-terminal amide, cyclic, disulfide) | KPC-2 | BLI | peptide |  |  | koff | 0.00031 s⁻¹
insulin human |  | item: GOT1 mRNA | EcoHIV-infected mouse, brain | i.p., dose not given | relative to: PBS | fold change | 1.1
CDYYAYATFGFTSAAADAKVC (MBP/BLIP cyclic peptide (Streptomyces clavuligerus); cyclic) | KPC-2 | SPR | peptide |  |  | Kd | 390 ± 73 nM
abamectin | NR1H3 (Homo sapiens, UniProt Q13133) | receptor activity, inhibitor | cells |  |  | IC50 | 6220 ± 7170 nM
maxadilan | ADCYAP1R1 (Homo sapiens, UniProt P41586) | cAMP production, agonist | COS-7 | 37 °C, AUC over 20 min |  | Emax | 70 ± 2%
CHLWFTDGVLC (BLIP cyclic peptide (Streptomyces clavuligerus); C-terminal amide, cyclic, disulfide) | KPC-2 | BLI | peptide |  |  | koff | 0.00045 s⁻¹
Neuromedin B | HCRTR2 del254-292/I293E/K294R/L160H/M161K/Q254E | sensor fluorescence, fluorescence imaging | HEK293T | concentration not given, unit not given | relative to: baseline | ΔF/F0 | 2.49 and 0.914 and 0.0112 and -0.767 and 3.25 and -0.679 and 3.38 and 2.27
HVLVMSATRR |  |  | peptide, C57BL/6J mice, male, serum | subcutaneous osmotic pump, 3 mg/kg/day peptide basis, 8 weeks |  | ALT | 26 U/L and 165 U/L and 62 U/L
orexin-B | HCRTR2 del254-292/I293E/K294R/L160H/M161K/Q254E | sensor fluorescence, fluorescence imaging | HEK293T | 10 µM, with: OXB 10 µM | relative to: baseline | maximal ΔF/F0 | 840% and 944% and 775% and 897% and 1020% and 828% and 741%
EDKAAVIMPCKCAPSRQLVQVWLQAKE (REV3L RBM2, 1988-2014 K1991A/I1992A (Homo sapiens)) | MAD2L2 R124A | competition with FAM-REV3 peptide, competitor, fluorescence polarisation | peptide |  |  | IC50 | 1900 ± 40 nM
spn N-terminal deletion (Staphylococcus aureus) | MPO mature, native (Homo sapiens, UniProt P05164) | SPR |  |  |  | koff | 0.0102 s⁻¹
EDKKIVIMPCKCAPSR (REV3L RBM2, 1988-2003 (Homo sapiens)) | MAD2L2 R124A | competition with FAM-REV3 peptide, competitor, fluorescence polarisation | peptide |  |  | IC50 | 33000 ± 14000 nM
IFT27 (Chlamydomonas reinhardtii, UniProt A8HN58) | IFT25 (Chlamydomonas reinhardtii, UniProt B8LIX8) | cross-linking MS |  | hits only |  | interaction screen | cross-linked
YGGFLRKYP (β-neoendorphin mature peptide (UniProt P01213)) | GPR139 (Homo sapiens, UniProt Q6DWJ6) | radioligand binding | peptide |  |  | Ki | 1950 nM
Nociceptin | HCRTR2 del254-292/I293E/K294R/L160H/M161K/Q254E | sensor fluorescence, fluorescence imaging | HEK293T | concentration not given, unit not given | relative to: baseline | ΔF/F0 | 0.354 and 0.512 and -1.61 and 0.592 and -1.82 and -1.13 and 1.06 and -0.553
NS5A mature (hepatitis C virus, UniProt Q9WMX2) | PPIA | AlphaScreen | CHO |  | relative to: CypA control, higher = stronger interaction | specific window | 1.7 fold
brain natriuretic peptide | hly (Staphylococcus aureus, UniProt P09616) | nanopore sensing |  | asymmetric electrolyte |  | limit of detection | ~770 fM
DPDPE |  | RP-HPLC | HALO Phenyl-hexyl column | 25 µM, formic acid/methanol, 10 min gradient |  | retention time | 8.73 min
aspterric acid |  | hypocotyl length | Arabidopsis thaliana Col-0 seeds | 50.0 µg/mL, 7 days, dark |  | inhibition | 98.9%
PRPRPRPRPRPRPRPRPRPRPRPRPRPRPRPRPRPRPRPRPRPRPRPRPRPRPRPRPRPR (poly-PR 30 repeats) | G3BP1 1-411 (Homo sapiens, UniProt Q13283) | BLI | peptide |  |  | Kd | 8.12 nM
amyloid β-peptide (1–28) |  | substrate, LC-MS | phosphate buffer | 10 µM, 2 h, pH 7.4, 25 °C, with: MINP(β1–14) 1 equiv |  | remaining substrate | 88.4 ± 3.6%
nonaarginine | PorA peptide pore | peptide binding, planar bilayer single-channel recording |  | 0.5 µM, pH 7.4, -25 mV, cis side, 150 mM KCl |  | koff | 526 ± 53 s⁻¹

For quick reference, copied from above:
Molecule | tested on | test | test system | conditions | scale | endpoint | result
aspterric acid |  | hypocotyl length | Arabidopsis thaliana Col-0 seeds | 50.0 µg/mL, 7 days, dark |  | inhibition | 98.9%
spn N-terminal deletion (Staphylococcus aureus) | MPO mature, native (Homo sapiens, UniProt P05164) | SPR |  |  |  | koff | 0.0102 s⁻¹
RNA 1 AACAAAACAAAAUAGCACCGUAAAGC / RNA 2 GCUUUACGGUGCUA (dsRNA; 14 bp duplex, 5' 12 nt overhang) | DEAD-box ATP-dependent RNA helicase RhpA (Pseudomonas aeruginosa, UniProt Q9HX66) | fluorescence polarization | double-stranded RNA | with: AMP-PNP 1 mM |  | Kd | 2.2 nM
